# Assay results pooled from the literature.
# Each numbered part is a random draw from the data of one study; scales do not carry over between parts. Substitutions count along the parent as printed.

# Study 1
# Target: Protein max, full length (MAX, Homo sapiens, UniProt P61244-2, residues 1-151)
# Method: protein-binding microarray
# Form: double-stranded DNA, one strand shown
# Matrix: in vitro
# Tested at: not given
# Notes: k-mer, scored over probes, only values ≥0.25
# Direction: higher = stronger binding
Sequence,E-score
CATATGGC,0.357
CGCATGGA,0.4
ACATGGGG,0.403
AGGCACGA,0.264
ACATGTTC,0.368
ACCACGGG,0.342
ACATGCCT,0.38
CCCGTGTC,0.298
AGCGTGAG,0.316
CACACCCG,0.251
ATCACGCC,0.327
CATGCGGA,0.44
CATGCAAG,0.278

# Study 2
# Target: ABI1, truncated, D143A, DHFR fusion (Arabidopsis thaliana)
# Method: DHFR PCA, deep sequencing
# Matrix: yeast
# Notes: methotrexate growth selection, single substitutions
# Added: (+)-ABA 1.4 µM
# Baseline: wild-type fitted maximum
# Direction: higher = stronger binding
# Starting sequence: PYL1, truncated, DHFR fusion (Arabidopsis thaliana); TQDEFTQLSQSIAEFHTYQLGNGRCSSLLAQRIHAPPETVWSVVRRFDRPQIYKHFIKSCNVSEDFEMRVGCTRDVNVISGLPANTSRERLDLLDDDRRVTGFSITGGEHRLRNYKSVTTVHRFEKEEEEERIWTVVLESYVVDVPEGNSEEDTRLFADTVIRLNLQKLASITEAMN; partner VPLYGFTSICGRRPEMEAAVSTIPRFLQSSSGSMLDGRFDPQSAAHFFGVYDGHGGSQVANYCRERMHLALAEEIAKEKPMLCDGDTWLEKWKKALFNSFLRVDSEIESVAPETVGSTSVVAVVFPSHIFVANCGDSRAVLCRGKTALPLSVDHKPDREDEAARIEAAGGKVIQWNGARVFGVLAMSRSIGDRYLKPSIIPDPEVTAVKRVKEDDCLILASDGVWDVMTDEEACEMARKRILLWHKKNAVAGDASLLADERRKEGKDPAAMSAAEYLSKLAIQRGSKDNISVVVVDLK
Substitution,relative binding score
S117E,-14.7%
L20D,56.3%
I172W,-2.76%
E147L,34.9%
D48F,-1.63%
L166R,10.7%
R69G,34.2%
I133T,70.5%
N77D,49.6%
C60V,53%
I33A,-2.07%
S63D,57.6%
I105T,-0.463%
R24A,13.7%
E67S,41.9%
E147I,34.9%
D96A,2.7%
Y115L,-6.07%
S9W,33.9%
E64H,58.3%
Q7V,65.2%
E64C,35.3%
A35E,7.55%
V137Q,-1.93%
H122L,5.97%

# Study 3
# Target: Histone acetyltransferase KAT6A, winged helix 2, GST fusion (KAT6A, Homo sapiens, UniProt Q92794, residues 85-181)
# Method: protein binding microarray
# Form: double-stranded DNA, one strand shown
# Matrix: in vitro
# Tested at: not given
# Notes: 8-mer, flanks averaged, mean of 2 arrays, mostly near background
# Baseline: not given
# Direction: higher = stronger binding
# Target sequence (chain): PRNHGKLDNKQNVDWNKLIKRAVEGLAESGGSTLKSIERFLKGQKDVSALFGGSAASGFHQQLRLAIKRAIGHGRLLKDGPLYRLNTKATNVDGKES
Sequence,E-score
GCATTCCC,-0.026
GAGGGAAC,-0.0249
CGAACCCG,-0.00788
TAAAAAGA,0.053
ACTGGGGC,0.095
AGGTTAGC,-0.0939
ACTGAACC,-0.0113
GACCCCGC,0.0857
TCTAAAGA,0.226
AGGCAAGC,-0.00979
CAACCACC,-0.0611
TACGCCAA,-0.0596
CGAAGACG,0.0301
ACTCTTGG,-0.0408
ATGAAGAA,0.0287
ATCCACAA,0.0858
GGACTAAC,-0.0436
AGGGCCGA,0.183
TGCCATAA,-0.149

# Study 4
# Target: Ras GTPase-activating protein-binding protein 1, RRM domain (G3BP1, Homo sapiens, UniProt Q13283)
# Sequence of UniProt Q13283 (whole entry, looked up): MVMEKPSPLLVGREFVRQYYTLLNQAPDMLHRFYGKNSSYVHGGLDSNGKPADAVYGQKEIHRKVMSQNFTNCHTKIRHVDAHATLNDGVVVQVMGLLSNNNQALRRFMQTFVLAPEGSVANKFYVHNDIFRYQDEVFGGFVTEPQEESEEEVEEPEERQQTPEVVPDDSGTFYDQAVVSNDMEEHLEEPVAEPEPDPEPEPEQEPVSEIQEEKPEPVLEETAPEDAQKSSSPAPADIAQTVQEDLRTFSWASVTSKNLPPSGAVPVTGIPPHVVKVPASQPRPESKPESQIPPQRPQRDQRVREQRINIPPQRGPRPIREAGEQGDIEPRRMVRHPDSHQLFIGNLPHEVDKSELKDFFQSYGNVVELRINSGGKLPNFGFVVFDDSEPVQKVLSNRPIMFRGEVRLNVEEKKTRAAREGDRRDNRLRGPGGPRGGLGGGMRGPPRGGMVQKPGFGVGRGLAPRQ
# Method: RNA Bind-n-Seq
# Form: RNA
# Matrix: in vitro
# Tested at: 1 µM
# Notes: whole 134-nt RNA, ends assumed
# Added: 150 mM KCl
# Baseline: input library
# Direction: higher = stronger binding
Sequence,log2 enrichment
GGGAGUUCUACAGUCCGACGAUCUCAUUUUUUUCCCUGCCGGAAUUUUAGCAUUGAUAUGAACCAUGGACAAGUAUAUUCUGCUGCCACAAAGACUGUAAAGUGCUUCAUUUCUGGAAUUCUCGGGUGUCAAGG,-0.187
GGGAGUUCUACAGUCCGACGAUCCUCAAGUCCUGUGCUACACAUCGUAUGUACCGAAUCGGGCCGGGCCGGGCCGGGAAAGUAUUAUGUUACGCCGUUCGGAUCUGCACUUCCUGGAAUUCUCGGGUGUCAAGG,-0.755
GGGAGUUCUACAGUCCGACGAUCCAAGUCCUGUGCUACACAUCGUAUGUACCGAAUCGGGUGGGUUUUUUUGGGAGGGAAAGUAUUAUGUUACGCCGUUCGGAUCUGCACUUCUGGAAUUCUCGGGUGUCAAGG,0.663
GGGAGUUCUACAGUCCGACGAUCUGGCCCUGGUGGCAUGCGGGGAGGAAGAGGUGGCCUCAUGGAUCUUGGUGGUCCCGGUGGAAUGUUCAGAGGUGGCCGUGGUGGAGACAGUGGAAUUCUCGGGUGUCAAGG,1.35
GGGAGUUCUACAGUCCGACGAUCAAGUCCUGUGCUACACAUCGUAUGUACCGAAUCGGAAAAAGGAAAGGUUUUUUUGGAAAGUAUUAUGUUACGCCGUUCGGAUCUGCACUUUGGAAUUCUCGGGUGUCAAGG,-0.34
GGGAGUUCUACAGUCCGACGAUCUGGGAGGUGGCUUUUGUUUAUUUUUUUAGCUCAUUUCCAGGGGUGGGAAUUUUUUUUUAAUAUGUGUCAUGAAUAAAGUUGUUUUUGAAAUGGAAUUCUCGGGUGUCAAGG,1.62
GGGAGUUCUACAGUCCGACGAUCCACAGACAACACGCACCCACACAGACACAGAGGGAAGGGGUUGGGAUGGGGACAGGGUGCACAGCAGGGCGGGAUAGGACCCCAGCCCCUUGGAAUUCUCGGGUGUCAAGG,-0.327
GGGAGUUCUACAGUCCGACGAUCCUGUGCUACACAUCGUAUGUACCGAAUCGGGGAAAGGGGAAAAAAAGGGGUUUUUUUGGGGAAAGUAUUAUGUUACGCCGUUCGGAUCUGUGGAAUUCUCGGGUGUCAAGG,0.685
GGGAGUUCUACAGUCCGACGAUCAAGUCCUGUGCUACACAUCGUAUGUACCGAAUCGGAAAAAAAGGAAAAAGGAAAGGAAAGUAUUAUGUUACGCCGUUCGGAUCUGCACUUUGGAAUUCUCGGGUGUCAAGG,-0.0441
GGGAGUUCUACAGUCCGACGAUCCAAGUCCUGUGCUACACAUCGUAUGUACCGAAUCGGCCCGGGGCCCGGGCCCGGGGAAAGUAUUAUGUUACGCCGUUCGGAUCUGCACUUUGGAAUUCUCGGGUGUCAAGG,-0.732

# Study 5
# Target: CCNA1, cyclin fold, Cln2 fusion (human)
# Method: yeast growth competition, sequencing
# Matrix: yeast
# Notes: weak parent motif
# Baseline: not given
# Direction: higher = stronger binding
# Starting sequence: MASTL docking peptide (human); PMIAKNLMCELDE; partner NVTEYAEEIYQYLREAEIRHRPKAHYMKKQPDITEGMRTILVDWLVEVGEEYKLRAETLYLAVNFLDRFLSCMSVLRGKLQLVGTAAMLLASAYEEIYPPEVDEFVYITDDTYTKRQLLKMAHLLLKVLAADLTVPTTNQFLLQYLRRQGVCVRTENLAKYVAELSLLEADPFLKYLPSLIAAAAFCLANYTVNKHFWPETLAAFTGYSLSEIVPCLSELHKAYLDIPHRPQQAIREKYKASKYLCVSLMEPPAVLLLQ
Substitution,normalised enrichment score
PMIAKNQMCELDE [L7Q],-0.0352
PMIAKNLMCELEE [D12E],0.0636
PMIAPNLMCELDE [K5P],-0.236
PMIAKNLMCPLDE [E10P],0.14
PMIAKNLMCEDDE [L11D],-0.256
PMIAKDLMCELDE [N6D],0.264
PMIAKNLMCELVE [D12V],0.314
PMIAKNLYCELDE [M8Y],0.0888
PMDAKNLMCELDE [I3D],0.0185
PMIAKNLHCELDE [M8H],0.121
PMKAKNLMCELDE [I3K],0.0868
PMIAKGLMCELDE [N6G],-0.0135
PMIAKNLMCFLDE [E10F],-0.0454
PMFAKNLMCELDE [I3F],-0.0103
PMIHKNLMCELDE [A4H],0.0849
PMIAKNLMAELDE [C9A],0.24
PMIAKNRMCELDE [L7R],0.0056
PMIAKNLMDELDE [C9D],-0.221
PMTAKNLMCELDE [I3T],0.194
PMIAKCLMCELDE [N6C],0.0349
PMIPKNLMCELDE [A4P],0.344
PMIAKNLACELDE [M8A],0.0104
PMIAKNLMCEPDE [L11P],-0.14
PMIEKNLMCELDE [A4E],-0.19
PMIAKNLMCELLE [D12L],0.0454

# Excerpt of the above (study 5):
Substitution,normalised enrichment score
PMIAKNLMCELEE [D12E],0.0636
PMIAKDLMCELDE [N6D],0.264
PMIAKNLMCEDDE [L11D],-0.256
PMIAKNQMCELDE [L7Q],-0.0352
PMIAKNLMAELDE [C9A],0.24
PMTAKNLMCELDE [I3T],0.194
PMFAKNLMCELDE [I3F],-0.0103
PMIAPNLMCELDE [K5P],-0.236
PMIAKNLMDELDE [C9D],-0.221
PMKAKNLMCELDE [I3K],0.0868
PMIAKNLACELDE [M8A],0.0104
PMIAKNLMCELLE [D12L],0.0454
PMDAKNLMCELDE [I3D],0.0185
